Results from different studies.
A part holds a random share of what one study measured.

Sample 1
Target: Centromere-binding protein 1, full length, His-tagged (CBF1, Saccharomyces cerevisiae, UniProt P17106, residues 1-351)
Chain of UniProt P17106 (whole entry, looked up): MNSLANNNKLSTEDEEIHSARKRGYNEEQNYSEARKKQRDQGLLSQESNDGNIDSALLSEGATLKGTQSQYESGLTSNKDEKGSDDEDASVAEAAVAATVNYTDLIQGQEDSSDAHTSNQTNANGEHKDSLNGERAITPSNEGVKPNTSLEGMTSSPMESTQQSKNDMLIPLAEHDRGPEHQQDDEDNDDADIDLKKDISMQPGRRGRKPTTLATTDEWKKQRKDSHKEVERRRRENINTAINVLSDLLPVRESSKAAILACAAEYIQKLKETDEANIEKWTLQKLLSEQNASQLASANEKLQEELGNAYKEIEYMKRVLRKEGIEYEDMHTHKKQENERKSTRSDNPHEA
Method: competition protein-binding microarray
Molecule type: double-stranded DNA, one strand shown
Matrix: in vitro
Tested at: 2 µM
Notes: whole 60-bp probe, lowest competitor level
Added: Pho4 competitor, 0.05 µM
Reading: higher = stronger binding
| Strand | fluorescence intensity |
| --- | --- |
| AATTCACTTGATTCTCATGTGAGTACATCAGAAAAAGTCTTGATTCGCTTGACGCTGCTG | 105 a.u. |
| CGAAATATTATACGTCAGGTGTATATCAAGTGCTCAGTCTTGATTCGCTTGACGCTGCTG | 524 a.u. |
| AGACCCTTGTCGCGTCAGGTGATTGTTGTGGTACTTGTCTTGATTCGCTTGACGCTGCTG | 899 a.u. |
| GATAGTGCTGTCTGGGGCGTGCGATATGCAAAGCTTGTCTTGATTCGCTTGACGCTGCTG | 58.5 a.u. |
| GTCTTGTCTCATTGCTGCGTGGGTGTCCCCACTTCAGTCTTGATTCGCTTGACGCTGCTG | 68.3 a.u. |
| TTGATATGTTTATGTAATAATATTTACCACCGCCACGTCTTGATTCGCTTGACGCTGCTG | 92.3 a.u. |
| AAGAGCTTTCTATTACATGTGGGAAGACTAATATAGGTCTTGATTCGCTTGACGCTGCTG | 84.6 a.u. |

Sample 2
Target: Sal-like protein 4, full length isoform B (SALL4, Homo sapiens, UniProt Q9UJQ4-2, residues 1-616)
Method: universal PBM
Molecule type: double-stranded DNA, one strand shown
Matrix: in vitro
Tested at: not given
Notes: 8-mer, flanks averaged, mean of replicates
Reading: higher = stronger binding
| Strand | E-score |
| --- | --- |
| CAGAGGAA | -0.129 |
| AATAGGCC | -0.0225 |
| AGTACAGA | 0.107 |
| AGACGCGG | -0.18 |
| GTTCTGGA | -0.00196 |
| AGCTCGTC | -0.277 |
| ATGAGACC | 0.0268 |

Sample 3
Target: RING finger protein unkempt homolog, zinc fingers 1-6, GST-SBP tag (UNK, Homo sapiens, UniProt Q9C0B0, residues 30-357)
Chain of UniProt Q9C0B0 (30-357, looked up): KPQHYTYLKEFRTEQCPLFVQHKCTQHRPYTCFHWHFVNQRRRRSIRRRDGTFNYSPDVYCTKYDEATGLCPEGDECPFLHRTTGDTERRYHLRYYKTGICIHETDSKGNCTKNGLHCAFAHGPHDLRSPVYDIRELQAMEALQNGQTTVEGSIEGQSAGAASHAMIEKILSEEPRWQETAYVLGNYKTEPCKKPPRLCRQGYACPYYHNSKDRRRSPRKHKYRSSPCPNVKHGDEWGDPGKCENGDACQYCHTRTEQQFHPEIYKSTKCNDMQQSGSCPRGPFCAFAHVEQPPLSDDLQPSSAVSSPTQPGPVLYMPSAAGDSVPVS
Method: RNA Bind-n-Seq
Molecule type: RNA
Matrix: in vitro
Tested at: not given
Notes: RNA with constant flanks, human-mouse chimeric sites, ends assumed
Reference: input RNA pool
Reading: higher = stronger binding
| Strand | bound/input enrichment [ratio] |
| --- | --- |
| GGGAGUUCUACAGUCCGACGAUCGGCUGCUGGUGACUGUCCUGGAGUGGCUGGAGUUCCCGCCGGAGCGCGGCCAGACUAAUUUUAGAAAAUGCCAAGUAGGAAAUUUGCUGAGGGUGAAGUGGUCAGAGGUCGAUGGCCUGGCAACAGAGGAUUGAGCAUCA | 6.1 |
| GGGAGUUCUACAGUCCGACGAUCCACAGAGGAGAUCUGCUGUUCCUCACAAAUUUCCGGGAGGACCCCAUCAGAGCUGGUGAAAUAGUUGUUUUUAAGGUUGAAGGAAGAGACAUUCCGAUAGUUCACAGAGUAAUCAAAGUUCAACAGAGGAUUGAGCAUCA | 3.38 |
| GGGAGUUCUACAGUCCGACGAUCGCUCUUGGGAAUGUAAUAAGUGCCUUGGGGGACAAGAGCAAGAGAGCCACACAUGUCCCUUACAGAGACUCUAAGCUGACAAGACUCUUGCAGGAUUCCCUUGGGGGUAACAGCCAAACCCAACAGAGGAUUGAGCAUCA | 0.116 |
| GGGAGUUCUACAGUCCGACGAUCACCAUUUUCGCGGUUCAGGCUUUGUGUUGUAUUUACUUACGGUAUUAAAUUAUUAUUCUGCUUAGCUUAAAGUAAGGAUAAUUGCAUUUAAAGAGGUUACUGAAUGUUACUCUGAAACUUCAACAGAGGAUUGAGCAUCA | 0.254 |

Other studies, line by line
| Molecule | target | test | system | setting | scale | quantity | result |
| --- | --- | --- | --- | --- | --- | --- | --- |
| PhoQ, residues 284 288 289 292 302 303 SACGEM | PhoP, residues 12 14 15 18 19 HLGGL (Escherichia coli, UniProt P23836) | Sort-seq, refers to: YFP reporter | E. coli | PhoQ-PhoP variant library, added: 10 µM Mg2+ | reference: high Mg2+ state, higher = stronger signaling | fold induction | 4.62 |

A few entries again (sample 3):
| Strand | bound/input enrichment [ratio] |
| --- | --- |
| GGGAGUUCUACAGUCCGACGAUCGGCUGCUGGUGACUGUCCUGGAGUGGCUGGAGUUCCCGCCGGAGCGCGGCCAGACUAAUUUUAGAAAAUGCCAAGUAGGAAAUUUGCUGAGGGUGAAGUGGUCAGAGGUCGAUGGCCUGGCAACAGAGGAUUGAGCAUCA | 6.1 |
| GGGAGUUCUACAGUCCGACGAUCCACAGAGGAGAUCUGCUGUUCCUCACAAAUUUCCGGGAGGACCCCAUCAGAGCUGGUGAAAUAGUUGUUUUUAAGGUUGAAGGAAGAGACAUUCCGAUAGUUCACAGAGUAAUCAAAGUUCAACAGAGGAUUGAGCAUCA | 3.38 |
| GGGAGUUCUACAGUCCGACGAUCGCUCUUGGGAAUGUAAUAAGUGCCUUGGGGGACAAGAGCAAGAGAGCCACACAUGUCCCUUACAGAGACUCUAAGCUGACAAGACUCUUGCAGGAUUCCCUUGGGGGUAACAGCCAAACCCAACAGAGGAUUGAGCAUCA | 0.116 |
